# Measurements pooled from the literature.
# Sequences of proteins named here, by UniProt entry; tags and fusion partners are left off. A change or cut given only in a name is not applied to a line headed by its entry. Residues count along the entry.
# UniProt P09545, 611-741 limits assumed: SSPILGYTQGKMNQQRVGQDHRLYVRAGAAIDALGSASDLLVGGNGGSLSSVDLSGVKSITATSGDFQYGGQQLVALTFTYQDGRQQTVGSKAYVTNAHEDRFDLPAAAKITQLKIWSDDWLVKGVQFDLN
# UniProt P04293, whole entry: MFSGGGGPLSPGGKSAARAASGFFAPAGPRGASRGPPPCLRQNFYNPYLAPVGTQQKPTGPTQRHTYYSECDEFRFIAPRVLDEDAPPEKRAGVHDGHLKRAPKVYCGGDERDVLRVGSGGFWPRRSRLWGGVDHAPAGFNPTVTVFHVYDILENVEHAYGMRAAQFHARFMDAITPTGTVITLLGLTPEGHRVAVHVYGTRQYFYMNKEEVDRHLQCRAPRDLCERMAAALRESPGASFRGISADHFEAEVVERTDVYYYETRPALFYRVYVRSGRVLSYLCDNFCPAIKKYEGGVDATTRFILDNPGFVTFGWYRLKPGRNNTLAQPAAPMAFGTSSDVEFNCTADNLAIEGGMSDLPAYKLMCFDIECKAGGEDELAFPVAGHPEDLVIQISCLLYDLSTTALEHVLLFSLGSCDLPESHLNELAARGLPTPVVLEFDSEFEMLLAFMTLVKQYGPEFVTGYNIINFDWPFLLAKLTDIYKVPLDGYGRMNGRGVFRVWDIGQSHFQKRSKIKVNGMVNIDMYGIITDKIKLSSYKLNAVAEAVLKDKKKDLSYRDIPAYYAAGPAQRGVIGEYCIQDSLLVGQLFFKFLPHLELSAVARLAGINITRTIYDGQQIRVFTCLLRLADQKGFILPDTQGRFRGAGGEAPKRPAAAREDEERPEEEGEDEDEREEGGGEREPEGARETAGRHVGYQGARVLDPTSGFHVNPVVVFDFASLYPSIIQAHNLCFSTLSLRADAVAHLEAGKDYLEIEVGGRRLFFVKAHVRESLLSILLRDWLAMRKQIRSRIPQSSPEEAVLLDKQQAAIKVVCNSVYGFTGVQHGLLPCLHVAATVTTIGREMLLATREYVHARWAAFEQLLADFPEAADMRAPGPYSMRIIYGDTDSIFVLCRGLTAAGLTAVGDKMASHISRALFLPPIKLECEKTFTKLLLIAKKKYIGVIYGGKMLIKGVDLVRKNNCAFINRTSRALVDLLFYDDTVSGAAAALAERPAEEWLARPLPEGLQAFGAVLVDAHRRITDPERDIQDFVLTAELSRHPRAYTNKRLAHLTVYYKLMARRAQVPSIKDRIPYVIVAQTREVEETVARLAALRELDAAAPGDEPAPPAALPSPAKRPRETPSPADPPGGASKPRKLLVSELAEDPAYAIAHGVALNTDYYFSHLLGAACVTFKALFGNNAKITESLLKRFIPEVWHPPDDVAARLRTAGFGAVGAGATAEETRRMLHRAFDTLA
# UniProt A0A4X1VEU5, 29-602 limits assumed: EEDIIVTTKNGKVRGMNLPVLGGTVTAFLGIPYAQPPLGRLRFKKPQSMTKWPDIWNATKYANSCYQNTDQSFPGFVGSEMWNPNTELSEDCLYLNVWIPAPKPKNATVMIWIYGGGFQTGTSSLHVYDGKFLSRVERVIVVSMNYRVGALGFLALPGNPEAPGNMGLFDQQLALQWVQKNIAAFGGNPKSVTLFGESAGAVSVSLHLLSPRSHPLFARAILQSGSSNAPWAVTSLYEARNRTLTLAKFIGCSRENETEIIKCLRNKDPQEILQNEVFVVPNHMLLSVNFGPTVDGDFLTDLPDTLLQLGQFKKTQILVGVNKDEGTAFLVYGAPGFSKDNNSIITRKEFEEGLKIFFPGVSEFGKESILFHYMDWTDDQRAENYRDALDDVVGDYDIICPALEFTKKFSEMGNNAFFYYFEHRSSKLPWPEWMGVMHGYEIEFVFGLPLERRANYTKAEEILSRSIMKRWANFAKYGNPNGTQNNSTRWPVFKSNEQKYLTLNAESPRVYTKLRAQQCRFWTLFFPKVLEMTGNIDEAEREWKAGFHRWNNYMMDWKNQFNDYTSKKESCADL
# UniProt P14867, 28-456 L291T limits assumed: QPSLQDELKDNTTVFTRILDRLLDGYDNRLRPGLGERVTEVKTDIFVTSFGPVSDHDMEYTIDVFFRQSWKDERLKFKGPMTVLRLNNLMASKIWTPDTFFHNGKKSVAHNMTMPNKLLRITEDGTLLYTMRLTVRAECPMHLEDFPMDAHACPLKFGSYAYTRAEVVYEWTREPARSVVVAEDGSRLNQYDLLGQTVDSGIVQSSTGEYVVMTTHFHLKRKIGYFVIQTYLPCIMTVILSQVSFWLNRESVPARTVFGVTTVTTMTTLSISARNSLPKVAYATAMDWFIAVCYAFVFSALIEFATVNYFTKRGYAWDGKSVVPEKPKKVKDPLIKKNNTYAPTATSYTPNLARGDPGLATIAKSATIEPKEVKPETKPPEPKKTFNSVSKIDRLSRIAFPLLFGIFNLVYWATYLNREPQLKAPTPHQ
# UniProt P28472, 26-473 limits assumed, stated change not applied: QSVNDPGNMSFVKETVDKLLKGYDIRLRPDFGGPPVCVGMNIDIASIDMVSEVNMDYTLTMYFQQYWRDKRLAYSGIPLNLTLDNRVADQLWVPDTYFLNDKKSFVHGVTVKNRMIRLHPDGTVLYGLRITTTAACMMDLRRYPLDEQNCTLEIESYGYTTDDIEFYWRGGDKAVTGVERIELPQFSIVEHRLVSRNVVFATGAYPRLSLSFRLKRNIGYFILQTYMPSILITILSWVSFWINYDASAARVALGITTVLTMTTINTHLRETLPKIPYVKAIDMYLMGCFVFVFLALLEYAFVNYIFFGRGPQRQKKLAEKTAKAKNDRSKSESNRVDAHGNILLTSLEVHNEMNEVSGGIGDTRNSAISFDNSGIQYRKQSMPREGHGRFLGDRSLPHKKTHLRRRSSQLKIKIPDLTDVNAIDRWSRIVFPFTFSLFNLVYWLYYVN
# UniProt P04757, whole entry, looked up: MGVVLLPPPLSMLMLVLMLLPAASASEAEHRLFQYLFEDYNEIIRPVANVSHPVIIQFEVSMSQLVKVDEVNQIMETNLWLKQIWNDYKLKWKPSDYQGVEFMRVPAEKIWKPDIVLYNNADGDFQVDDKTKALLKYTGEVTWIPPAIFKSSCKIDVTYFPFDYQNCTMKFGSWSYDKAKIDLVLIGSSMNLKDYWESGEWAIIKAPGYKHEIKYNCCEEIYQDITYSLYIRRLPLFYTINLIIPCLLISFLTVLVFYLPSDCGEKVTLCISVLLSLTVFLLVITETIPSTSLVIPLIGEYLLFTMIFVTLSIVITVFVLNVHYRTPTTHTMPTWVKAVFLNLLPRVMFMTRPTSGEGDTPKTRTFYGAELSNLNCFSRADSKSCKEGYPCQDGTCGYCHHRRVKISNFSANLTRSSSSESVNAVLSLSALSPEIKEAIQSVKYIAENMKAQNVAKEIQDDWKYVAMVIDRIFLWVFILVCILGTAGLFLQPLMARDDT
# UniProt P12392, whole entry, looked up: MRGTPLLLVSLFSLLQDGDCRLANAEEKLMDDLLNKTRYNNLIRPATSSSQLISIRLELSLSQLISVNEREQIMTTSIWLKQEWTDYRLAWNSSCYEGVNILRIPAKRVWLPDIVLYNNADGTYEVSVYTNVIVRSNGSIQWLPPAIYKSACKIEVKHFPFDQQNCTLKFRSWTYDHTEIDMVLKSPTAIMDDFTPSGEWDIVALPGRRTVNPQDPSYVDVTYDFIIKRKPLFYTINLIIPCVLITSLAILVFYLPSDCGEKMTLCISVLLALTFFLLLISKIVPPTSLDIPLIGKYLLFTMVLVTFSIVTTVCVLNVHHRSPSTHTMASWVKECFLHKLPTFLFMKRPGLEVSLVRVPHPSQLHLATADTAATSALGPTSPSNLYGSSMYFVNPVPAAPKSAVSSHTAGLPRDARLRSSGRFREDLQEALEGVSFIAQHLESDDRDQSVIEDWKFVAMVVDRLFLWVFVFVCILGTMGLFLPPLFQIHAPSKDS
# UniProt P43143, whole entry M241L/F253L/V303I/V320I/I327V/A333T/K339T, looked up: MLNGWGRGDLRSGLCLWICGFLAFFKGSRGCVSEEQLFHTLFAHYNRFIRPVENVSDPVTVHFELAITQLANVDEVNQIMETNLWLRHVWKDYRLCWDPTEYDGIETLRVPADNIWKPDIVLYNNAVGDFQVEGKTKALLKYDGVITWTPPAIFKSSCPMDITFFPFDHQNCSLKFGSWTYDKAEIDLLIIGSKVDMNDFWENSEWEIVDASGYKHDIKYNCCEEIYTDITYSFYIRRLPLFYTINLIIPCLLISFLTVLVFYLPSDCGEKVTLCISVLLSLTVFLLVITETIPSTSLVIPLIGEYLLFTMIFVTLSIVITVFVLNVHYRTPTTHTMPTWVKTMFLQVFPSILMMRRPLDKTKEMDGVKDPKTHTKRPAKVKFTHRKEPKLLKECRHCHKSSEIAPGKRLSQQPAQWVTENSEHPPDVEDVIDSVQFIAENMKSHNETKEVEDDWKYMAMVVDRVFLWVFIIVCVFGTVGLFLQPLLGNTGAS
# UniProt P0DOF5, whole entry V27A: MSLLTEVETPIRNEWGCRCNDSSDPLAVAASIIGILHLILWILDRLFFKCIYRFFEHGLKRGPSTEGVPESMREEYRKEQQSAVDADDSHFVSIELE
# UniProt P42574, whole entry, looked up: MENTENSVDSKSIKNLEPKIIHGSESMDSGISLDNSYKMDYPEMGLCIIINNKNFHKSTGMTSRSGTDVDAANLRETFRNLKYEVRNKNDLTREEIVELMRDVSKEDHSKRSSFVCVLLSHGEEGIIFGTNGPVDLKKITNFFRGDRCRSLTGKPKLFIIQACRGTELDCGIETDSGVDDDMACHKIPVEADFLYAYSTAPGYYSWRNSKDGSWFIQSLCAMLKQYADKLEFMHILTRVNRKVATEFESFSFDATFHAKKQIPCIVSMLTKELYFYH
# UniProt P37136, 32-574 limits assumed: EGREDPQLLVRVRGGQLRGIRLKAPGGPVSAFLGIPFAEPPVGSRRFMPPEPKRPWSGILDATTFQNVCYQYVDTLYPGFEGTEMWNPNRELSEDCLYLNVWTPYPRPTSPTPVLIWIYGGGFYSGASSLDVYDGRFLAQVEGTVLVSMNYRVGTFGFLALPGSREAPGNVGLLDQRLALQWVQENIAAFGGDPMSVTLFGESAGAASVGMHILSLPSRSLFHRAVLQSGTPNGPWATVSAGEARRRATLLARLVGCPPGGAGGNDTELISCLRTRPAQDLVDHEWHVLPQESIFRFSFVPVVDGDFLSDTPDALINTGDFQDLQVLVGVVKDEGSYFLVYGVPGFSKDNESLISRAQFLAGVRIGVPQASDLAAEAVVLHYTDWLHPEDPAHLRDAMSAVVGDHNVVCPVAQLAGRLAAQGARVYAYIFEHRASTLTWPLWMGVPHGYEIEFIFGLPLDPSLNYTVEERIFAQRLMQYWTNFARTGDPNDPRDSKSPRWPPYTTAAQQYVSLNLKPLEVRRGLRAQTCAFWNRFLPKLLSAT
# UniProt P18507, 40-475 partner limits assumed: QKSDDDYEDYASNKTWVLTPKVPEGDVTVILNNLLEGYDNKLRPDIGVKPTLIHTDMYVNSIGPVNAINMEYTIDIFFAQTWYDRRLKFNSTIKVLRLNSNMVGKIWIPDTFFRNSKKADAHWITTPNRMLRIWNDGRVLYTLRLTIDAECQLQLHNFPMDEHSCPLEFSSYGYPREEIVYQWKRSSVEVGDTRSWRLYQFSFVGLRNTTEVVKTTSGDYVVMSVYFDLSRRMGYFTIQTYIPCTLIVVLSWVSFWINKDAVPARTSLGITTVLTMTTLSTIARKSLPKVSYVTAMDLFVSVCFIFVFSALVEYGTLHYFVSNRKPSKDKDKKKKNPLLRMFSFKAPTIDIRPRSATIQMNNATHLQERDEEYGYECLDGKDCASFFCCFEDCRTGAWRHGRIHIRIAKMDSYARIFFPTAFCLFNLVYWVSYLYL
# Compare with care: the assays were run in different laboratories. Numbers after ± are the reported error.
Compound,target or system,test,test system,conditions,how to read,quantity,value
CC(=O)N[C@H]1[C@H](O[C@@H]([C@H](O)[C@H](CNc2ccccc2C(=O)O)NC(C)=O)[C@H](O)CO)O[C@H](CO)[C@@H](O[C@@H]2O[C@H](CO[C@H]3O[C@H](CO)[C@@H](O)[C@H](O)[C@@H]3O[C@@H]3O[C@H](CO)[C@@H](O)[C@H](O)[C@H]3NC(C)=O)[C@@H](O)[C@H](O[C@H]3O[C@H](CO)[C@@H](O)[C@H](O)[C@@H]3O[C@@H]3O[C@H](CO)[C@@H](O)[C@H](O)[C@H]3NC(C)=O)[C@@H]2O)[C@@H]1O,"Hemolysin, beta-prism lectin domain (hlyA, Vibrio cholerae serotype O1, UniProt P09545)",,,,,Kd,71 ± 65 nM
Cc1cn([C@@H]2CC[C@H](OC(C(=O)O)P(=O)(O)O)C2)c(=O)[nH]c1=O (relative stereo),"DNA polymerase catalytic subunit (Herpes simplex virus, UniProt P04293)","enzyme activity, inhibitor",,added: activated calf thymus DNA,,IC50,26000 ± 20000 nM
CC(C)NP(=O)(NC(C)C)OP(=O)(NC(C)C)NC(C)C,"Butyrylcholinesterase (Sus scrofa, UniProt A0A4X1VEU5)","enzyme activity, competitive inhibitor",,pH 8.0,,Ki,60 ± 20 nM
Cc1nn(-c2ccc(Cl)cc2)c2c1C(c1ccc(O)cc1)C(C#N)=C(N)O2 (stereo not drawn),Vero E6,MTT,,100 µM,,viability,45.8%
CCOC(=O)c1cccn1C(C)c1ccncc1 (stereo not drawn),"GABA-A receptor alpha-1/beta-3, with gamma-2 subunit (GABRA1/GABRB3, Homo sapiens, UniProt P14867+P28472, L291T)","ion current, agonist, two-electrode voltage clamp",Xenopus laevis oocytes,,relative to: 100 µM GABA,EC50,335000 ± 36000 nM
CC[C@H](C)[C@@H]1NC(=O)[C@H](CCC(=O)O)NC(=O)[C@@H]2CCCN2C(=O)[C@H](Cc2c[nH]cn2)NC(=O)[C@H](CCCNC(=N)N)NC(=O)[C@H](C(C)C)NC(=O)[C@H](CC(N)=O)NC(=O)[C@@H]2CSSC[C@H](NC(=O)CN)C(=O)N[C@@H](CSSC[C@@H](C(N)=O)NC1=O)C(=O)N[C@@H](CO)C(=O)N[C@@H](Cc1c[nH]cn1)C(=O)N1CCC[C@H]1C(=O)N[C@@H](C(C)C)C(=O)N2,"Nicotinic acetylcholine receptor alpha6/alpha3/beta4 (Rattus norvegicus, UniProt P04757+P12392+P43143)","ion current, antagonist, two-electrode voltage clamp",Xenopus oocytes,"rat, added: ACh 300 µM",,IC50,0.49 nM
C=C(CC)C(=O)c1ccc(OCC(=O)NCCOCCOCCOCCC(=O)NCCN(CCNC(=O)CCOCCOCCOCCNC(=O)COc2ccc(C(=O)C(=C)CC)c(Cl)c2Cl)CCNC(=O)[C@H](CNC(=O)CCN2C(=O)CC(SC[C@H](NC(=O)CNC(=O)[C@H](CC(C)C)NC(=O)[C@@H](NC(=O)[C@H](CCCCN)NC(=O)[C@H](CCCCN)NC(=O)[C@H](C)NC(=O)[C@H](CC(C)C)NC(=O)[C@H](C)NC(=O)[C@H](C)NC(=O)[C@H](CC(C)C)NC(=O)[C@H](C)NC(=O)[C@H](CCCCN)NC(=O)[C@H](CC(C)C)NC(=O)[C@H](CC(N)=O)NC(=O)[C@@H](N)[C@@H](C)CC)[C@@H](C)CC)C(=O)O)C2=O)NC(=O)CCCCCN2C(=CC=CC=CC3=[N+](C)c4ccc(S(=O)(=O)O)cc4C3(C)C)C(C)(C)c3cc(S(=O)(=O)[O-])ccc32)c(Cl)c1Cl (stereo partly drawn),"Calm1, Ca2+-bound (Mus musculus, UniProt P0DP26)","binding, fluorescence anisotropy",,"pH 7.4, added: 0.3 mM CaCl2",,Kd,31 ± 8 nM
C1CCC2(CC1)CCNCC2,"Matrix protein 2 (Influenza A virus, UniProt P0DOF5, V27A)",viral replication,Udorn,,,IC50,> 200000 nM
N#Cc1c(-c2ccc(Cl)cc2Cl)n(-c2nc(-c3ccc(Cl)cc3)c3c(NC(=O)c4ccccc4)nnc-3[nH]2)[nH]c1=O,SF-268,SRB,,,,CC50,> 100000 nM
CC[C@H](C)[C@H](NC(=O)[C@@H](NC(=O)[C@H](CC(=O)O)NC(=O)CNC(=O)[C@@H](NC(=O)[C@H](CC(=O)O)NC(=O)[C@H](CCSC)NC(=O)[C@H](CCC(=O)O)NC(=O)[C@H](CC(=O)O)NC(=O)[C@@H](NC(=O)CCNC(=O)Cc1cc(=O)oc2cc(N)ccc12)C(C)C)[C@@H](C)O)[C@@H](C)O)C(=O)N[C@@H](CCCCNc1ccc([N+](=O)[O-])cc1[N+](=O)[O-])C(N)=O,"Caspase-3 (CASP3, Homo sapiens, UniProt P42574)",substrate,,pH 7.2,,Km,15.5 µM
COP(=O)(OC)Oc1ccc([N+](=O)[O-])cc1Cl,"Acetylcholinesterase (Ache, Rattus norvegicus, UniProt P37136)","enzyme activity, inhibitor, discontinuous Ellman","rat, postnatal day 1, rat lung homogenate","15 min, 37 °C",,IC50,109 nM
CC1(C)N=C(N)N=C(N)N1c1cccc(OCCCc2ccccc2)c1,Mycobacterium tuberculosis,microplate alamar blue,H37Rv,7H12 medium,,MIC90,5.8 µM

# Excerpt of the above:
Compound,target or system,test,test system,conditions,how to read,quantity,value
CC[C@H](C)[C@H](NC(=O)[C@@H](NC(=O)[C@H](CC(=O)O)NC(=O)CNC(=O)[C@@H](NC(=O)[C@H](CC(=O)O)NC(=O)[C@H](CCSC)NC(=O)[C@H](CCC(=O)O)NC(=O)[C@H](CC(=O)O)NC(=O)[C@@H](NC(=O)CCNC(=O)Cc1cc(=O)oc2cc(N)ccc12)C(C)C)[C@@H](C)O)[C@@H](C)O)C(=O)N[C@@H](CCCCNc1ccc([N+](=O)[O-])cc1[N+](=O)[O-])C(N)=O,"Caspase-3 (CASP3, Homo sapiens, UniProt P42574)",substrate,,pH 7.2,,Km,15.5 µM
CCOC(=O)c1cccn1C(C)c1ccncc1 (stereo not drawn),"GABA-A receptor alpha-1/beta-3, with gamma-2 subunit (GABRA1/GABRB3, Homo sapiens, UniProt P14867+P28472, L291T)","ion current, agonist, two-electrode voltage clamp",Xenopus laevis oocytes,,relative to: 100 µM GABA,EC50,335000 ± 36000 nM
